Measurements gathered from unrelated publications.
Every numbered part comes from another study and shows a few of its results, in no order. Several values in a cell are separate wells, animals, samples, runs or records.
Sequence of UniProt P21917 (whole entry, looked up): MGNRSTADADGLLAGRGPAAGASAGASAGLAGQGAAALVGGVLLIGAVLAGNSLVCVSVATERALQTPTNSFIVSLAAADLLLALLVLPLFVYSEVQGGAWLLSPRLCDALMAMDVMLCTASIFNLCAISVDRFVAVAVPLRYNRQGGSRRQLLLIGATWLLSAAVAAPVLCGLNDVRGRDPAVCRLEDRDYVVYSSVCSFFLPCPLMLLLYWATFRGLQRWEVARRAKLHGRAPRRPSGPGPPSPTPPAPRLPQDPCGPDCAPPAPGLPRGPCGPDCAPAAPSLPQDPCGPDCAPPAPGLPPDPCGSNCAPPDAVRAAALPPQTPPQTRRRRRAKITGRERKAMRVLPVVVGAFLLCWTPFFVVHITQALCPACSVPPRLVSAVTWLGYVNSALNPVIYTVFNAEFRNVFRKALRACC
Sequence of UniProt Q9H3N8 (whole entry, looked up): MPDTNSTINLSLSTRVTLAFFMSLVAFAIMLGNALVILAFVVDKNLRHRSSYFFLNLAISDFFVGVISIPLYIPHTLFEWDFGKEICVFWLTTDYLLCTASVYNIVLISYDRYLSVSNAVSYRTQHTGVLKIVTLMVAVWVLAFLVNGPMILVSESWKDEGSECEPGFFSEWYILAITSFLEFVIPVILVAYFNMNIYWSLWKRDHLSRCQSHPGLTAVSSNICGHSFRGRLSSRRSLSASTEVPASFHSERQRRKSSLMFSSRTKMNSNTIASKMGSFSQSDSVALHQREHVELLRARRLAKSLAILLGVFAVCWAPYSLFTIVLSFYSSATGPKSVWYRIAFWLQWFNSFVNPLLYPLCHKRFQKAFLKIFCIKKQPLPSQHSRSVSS
Sequence of UniProt P35462 (whole entry, looked up): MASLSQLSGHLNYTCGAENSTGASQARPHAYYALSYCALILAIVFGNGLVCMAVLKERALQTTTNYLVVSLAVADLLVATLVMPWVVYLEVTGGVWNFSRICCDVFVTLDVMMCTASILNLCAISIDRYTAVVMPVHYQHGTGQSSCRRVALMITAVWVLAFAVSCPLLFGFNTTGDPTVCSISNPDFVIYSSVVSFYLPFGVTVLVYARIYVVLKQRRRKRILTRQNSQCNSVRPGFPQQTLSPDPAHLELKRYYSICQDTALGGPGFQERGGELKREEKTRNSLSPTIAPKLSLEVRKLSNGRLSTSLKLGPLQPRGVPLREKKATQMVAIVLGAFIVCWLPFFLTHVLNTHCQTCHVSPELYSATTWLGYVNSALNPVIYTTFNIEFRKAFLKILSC
Sequence of UniProt Q8N568 (whole entry, looked up): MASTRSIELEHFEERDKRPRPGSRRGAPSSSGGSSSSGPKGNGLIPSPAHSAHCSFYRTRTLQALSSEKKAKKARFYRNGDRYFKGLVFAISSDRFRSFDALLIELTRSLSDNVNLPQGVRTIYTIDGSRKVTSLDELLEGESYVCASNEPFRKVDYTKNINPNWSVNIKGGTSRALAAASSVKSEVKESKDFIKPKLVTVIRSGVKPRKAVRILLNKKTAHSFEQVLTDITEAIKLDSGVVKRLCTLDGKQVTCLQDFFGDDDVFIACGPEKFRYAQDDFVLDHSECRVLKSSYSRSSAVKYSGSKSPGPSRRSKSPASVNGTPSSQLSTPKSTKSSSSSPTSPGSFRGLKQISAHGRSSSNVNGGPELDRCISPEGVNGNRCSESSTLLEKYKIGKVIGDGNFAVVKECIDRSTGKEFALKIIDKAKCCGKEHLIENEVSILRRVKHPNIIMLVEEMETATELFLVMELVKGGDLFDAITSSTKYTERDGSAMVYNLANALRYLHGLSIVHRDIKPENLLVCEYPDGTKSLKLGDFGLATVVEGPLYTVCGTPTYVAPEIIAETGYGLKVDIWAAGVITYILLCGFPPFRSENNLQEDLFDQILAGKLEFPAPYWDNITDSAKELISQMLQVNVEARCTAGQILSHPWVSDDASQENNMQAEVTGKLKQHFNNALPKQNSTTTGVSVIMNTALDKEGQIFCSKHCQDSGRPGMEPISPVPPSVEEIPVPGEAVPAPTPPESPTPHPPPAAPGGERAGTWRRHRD
Sequence of UniProt P50406 (whole entry, looked up): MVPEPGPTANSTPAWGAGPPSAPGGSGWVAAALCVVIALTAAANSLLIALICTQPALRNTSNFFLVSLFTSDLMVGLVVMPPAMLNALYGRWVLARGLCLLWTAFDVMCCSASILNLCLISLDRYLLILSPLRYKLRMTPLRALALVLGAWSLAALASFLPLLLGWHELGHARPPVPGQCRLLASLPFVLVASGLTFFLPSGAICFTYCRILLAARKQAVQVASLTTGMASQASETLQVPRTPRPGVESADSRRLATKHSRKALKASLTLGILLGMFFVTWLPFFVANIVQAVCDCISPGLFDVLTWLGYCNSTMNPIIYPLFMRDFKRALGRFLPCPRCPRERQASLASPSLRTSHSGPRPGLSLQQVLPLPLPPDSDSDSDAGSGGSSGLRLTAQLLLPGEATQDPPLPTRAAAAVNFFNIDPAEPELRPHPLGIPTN

Series 1
SMILES: CC(C)n1cnc(-c2ccc(F)cc2)c1-c1ncc(C(=O)Nc2ccc(N3CCN(C)CC3)cc2)[nH]1
Technique: phase 2a clinical trial
Host: patients with idiopathic pulmonary fibrosis
assay | setting | patients with treatment-emergent adverse events [%]
item: first degree atrioventricular block | dose not given, Grade 4, all drug arms | 0
item: left ventricular dysfunction | 60 mg once daily, Grade 2 | 0
item: drug-induced liver injury | 30 mg once daily, Grade 3 | 0
item: lumbar vertebral fracture | dose not given, Grade 5, maximum intensity, all drug arms total | 0
item: C-reactive protein increased | 60 mg once daily, Grade 4 | 0
item: interstitial lung disease | 30 mg once daily, Grade 2 | 0
item: left ventricular dysfunction | 30 mg once daily, Grade 5 | 0
item: idiopathic pulmonary fibrosis | dose not given, Grade 1, all drug arms | 0
item: electrocardiogram QT prolonged | 30 mg once daily, Grade 5 | 0
item: interstitial lung disease | dose not given, Grade 1, all drug arms | 0
item: benign prostatic hyperplasia | 60 mg once daily, Grade 5, maximum intensity | 0

Series 2
Target: DNA polymerase theta, ATPase domain (POLQ, Homo sapiens, UniProt O75417)
Sequence of UniProt O75417 (whole entry, unmodified, looked up): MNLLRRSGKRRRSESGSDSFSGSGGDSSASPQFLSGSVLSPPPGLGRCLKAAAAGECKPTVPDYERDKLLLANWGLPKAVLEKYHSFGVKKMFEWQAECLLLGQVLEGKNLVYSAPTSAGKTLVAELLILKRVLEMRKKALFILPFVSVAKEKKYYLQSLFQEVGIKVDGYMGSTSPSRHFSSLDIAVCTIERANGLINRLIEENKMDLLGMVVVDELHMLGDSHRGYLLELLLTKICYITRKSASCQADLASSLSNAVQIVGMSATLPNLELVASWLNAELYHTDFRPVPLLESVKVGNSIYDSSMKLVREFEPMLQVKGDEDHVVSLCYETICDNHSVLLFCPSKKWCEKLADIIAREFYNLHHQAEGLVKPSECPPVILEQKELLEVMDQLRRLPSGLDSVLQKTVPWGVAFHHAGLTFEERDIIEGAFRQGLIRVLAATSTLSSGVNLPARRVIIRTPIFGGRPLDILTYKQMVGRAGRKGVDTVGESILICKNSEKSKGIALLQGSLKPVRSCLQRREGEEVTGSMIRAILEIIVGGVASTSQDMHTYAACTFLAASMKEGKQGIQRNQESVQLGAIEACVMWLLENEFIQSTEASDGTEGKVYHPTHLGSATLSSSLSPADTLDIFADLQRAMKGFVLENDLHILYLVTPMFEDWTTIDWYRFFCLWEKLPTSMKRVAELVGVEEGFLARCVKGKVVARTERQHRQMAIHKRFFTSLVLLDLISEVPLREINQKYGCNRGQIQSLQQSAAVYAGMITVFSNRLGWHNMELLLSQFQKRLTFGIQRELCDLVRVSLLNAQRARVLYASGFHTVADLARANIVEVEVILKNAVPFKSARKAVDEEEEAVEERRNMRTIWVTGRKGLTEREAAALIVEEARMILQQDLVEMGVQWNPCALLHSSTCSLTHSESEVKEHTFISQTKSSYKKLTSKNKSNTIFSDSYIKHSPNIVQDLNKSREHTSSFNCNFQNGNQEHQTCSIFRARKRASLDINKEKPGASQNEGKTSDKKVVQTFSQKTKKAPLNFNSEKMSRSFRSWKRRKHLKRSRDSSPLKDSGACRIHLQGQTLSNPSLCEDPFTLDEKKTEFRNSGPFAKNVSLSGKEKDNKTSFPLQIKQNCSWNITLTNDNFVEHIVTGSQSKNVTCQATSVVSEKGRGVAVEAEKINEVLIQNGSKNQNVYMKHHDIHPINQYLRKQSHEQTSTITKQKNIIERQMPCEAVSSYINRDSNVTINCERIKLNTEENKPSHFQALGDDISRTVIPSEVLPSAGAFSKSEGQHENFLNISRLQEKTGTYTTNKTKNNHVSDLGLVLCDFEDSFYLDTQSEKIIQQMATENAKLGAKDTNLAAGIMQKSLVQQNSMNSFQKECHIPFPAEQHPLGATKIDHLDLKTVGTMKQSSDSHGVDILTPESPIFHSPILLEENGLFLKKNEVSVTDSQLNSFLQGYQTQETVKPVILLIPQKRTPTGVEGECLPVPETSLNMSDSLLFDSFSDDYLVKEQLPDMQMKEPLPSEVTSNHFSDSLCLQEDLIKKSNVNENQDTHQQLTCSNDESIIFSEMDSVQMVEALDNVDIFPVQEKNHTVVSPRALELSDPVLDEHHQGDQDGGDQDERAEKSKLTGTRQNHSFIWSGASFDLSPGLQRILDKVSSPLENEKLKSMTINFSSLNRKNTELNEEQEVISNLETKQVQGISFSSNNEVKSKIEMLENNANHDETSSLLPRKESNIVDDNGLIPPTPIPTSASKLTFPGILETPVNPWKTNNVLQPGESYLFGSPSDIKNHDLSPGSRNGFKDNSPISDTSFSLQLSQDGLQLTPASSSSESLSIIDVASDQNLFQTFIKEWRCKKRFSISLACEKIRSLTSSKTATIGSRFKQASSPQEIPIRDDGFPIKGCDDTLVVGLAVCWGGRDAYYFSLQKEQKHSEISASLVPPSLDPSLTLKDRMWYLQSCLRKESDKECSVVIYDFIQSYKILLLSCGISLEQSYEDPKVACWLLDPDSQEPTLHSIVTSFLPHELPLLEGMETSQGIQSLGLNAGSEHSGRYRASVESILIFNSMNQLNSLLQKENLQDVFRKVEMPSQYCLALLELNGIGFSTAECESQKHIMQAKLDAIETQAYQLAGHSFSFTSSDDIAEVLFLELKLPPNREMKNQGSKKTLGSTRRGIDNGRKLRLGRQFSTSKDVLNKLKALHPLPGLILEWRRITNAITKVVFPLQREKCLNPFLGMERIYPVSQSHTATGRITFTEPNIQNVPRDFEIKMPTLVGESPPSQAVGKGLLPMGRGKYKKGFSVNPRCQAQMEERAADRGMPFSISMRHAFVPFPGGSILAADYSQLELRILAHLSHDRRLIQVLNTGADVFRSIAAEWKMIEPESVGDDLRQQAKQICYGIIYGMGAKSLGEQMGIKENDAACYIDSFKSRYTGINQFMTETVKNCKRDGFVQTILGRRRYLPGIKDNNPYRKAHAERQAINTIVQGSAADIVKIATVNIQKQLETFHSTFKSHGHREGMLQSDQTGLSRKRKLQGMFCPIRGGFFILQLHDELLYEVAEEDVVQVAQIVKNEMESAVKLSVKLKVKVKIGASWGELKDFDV
Effect on: enzyme activity
Mode: inhibitor
Concentration: 77 µM
Reference: untreated
SMILES | remaining activity
Cn1c([N+](=O)[O-])cnc1COC(N)=O | 96.8% and 83.3%
CCCCN(CCCC)CCC(O)c1cc2c(Cl)cc(Cl)cc2c2cc(C(F)(F)F)ccc12 (stereo not drawn) | 87.2%
C#C[C@]1(O)CC[C@H]2[C@@H]3CCc4cc(O)ccc4[C@H]3CC[C@@]21C | 101%
C[C@]1(O)C[C@@H](c2nc(-c3ccc4ccc(-c5ccccc5)nc4c3)c3c(N)nccn32)C1 | 98.1%
COc1cccc2c1C(=O)c1c(O)c3c(c(O)c1C2=O)C[C@@](O)(C(=O)CO)C[C@@H]3O[C@H]1C[C@H](N)[C@@H](O)[C@H](C)O1 | 53.4%
NCCCCN | 105%
Cc1onc(-c2c(F)cccc2Cl)c1C(=O)N[C@@H]1C(=O)N2[C@@H]1SC(C)(C)[C@@H]2C(=O)O | 97.9%
Nc1ccc(O)c(C(=O)O)c1 | 92.2% and 87.8%
CCN1C(=O)C=CC1=O | 109%
CCN(CC)CCOC(=O)[C@H](Cc1cccc2ccccc12)C[C@H]1CCCO1 | 101%
CCC(=O)O[C@]1(C(=O)CCl)[C@@H](C)C[C@H]2[C@@H]3C[C@H](F)C4=CC(=O)C=C[C@]4(C)[C@@]3(F)[C@@H](O)C[C@@]21C | 101%
NC(=O)[C@@H](CCC(F)(F)F)N(Cc1ccc(-c2ncon2)cc1F)S(=O)(=O)c1ccc(Cl)cc1 | 101%

Series 3
Structure (SMILES): N#Cc1ccc(Nc2ccc3[nH]c(=O)[nH]c3c2)c(Cl)c1
Effect on: cell-free assay
Concentration: 10 µM
target | inhibition
HTR2B (Homo sapiens, UniProt P41595) | 11%
SIGMAR1 (Homo sapiens, UniProt Q99720) | 14%
HRH1 (Homo sapiens, UniProt P35367) | 14.7%
DRD3 (Homo sapiens, UniProt P35462) | 3.81%
TMEM97 (Homo sapiens, UniProt Q5BJF2) | -4.12%
ADRA1A (Homo sapiens, UniProt P35348) | -23.2%
HTR6 (Homo sapiens, UniProt P50406) | -1.18%
HRH4 (Homo sapiens, UniProt Q9H3N8) | 4.43%
DRD4 (Homo sapiens, UniProt P21917) | -2.02%

Series 4
SMILES: Cc1cc(Nc2cc(N3CCN(C)CC3)nc(Sc3ccc(NC(=O)C4CC4)cc3)n2)[nH]n1
Effect on: enzyme activity
Mode: inhibitor
Concentration: 0.5 µM
Reference: control
target | remaining activity
TLK2 (Homo sapiens, UniProt Q86UE8) | 86.6%
DCLK2 (Homo sapiens, UniProt Q8N568) | 99.2%
MAPK11 (Homo sapiens, UniProt Q15759) | 93.5%
Myosin-IIIb (MYO3B, Homo sapiens, UniProt Q8WXR4) | 92.8%
CLK3 (Homo sapiens, UniProt P49761) | 110%
CLK4 (Homo sapiens, UniProt Q9HAZ1) | 90%
PNCK (Homo sapiens, UniProt Q6P2M8) | 99%
RPS6KA4 (Homo sapiens, UniProt O75676) | 100%
CAMK4 (Homo sapiens, UniProt Q16566) | 93.9%
MET (Homo sapiens, UniProt P08581) | 70.9%
MAP2K1 (Homo sapiens, UniProt Q02750) | 89.7%
CDC42BPB (Homo sapiens, UniProt Q9Y5S2) | 101%
MARK4 (Homo sapiens, UniProt Q96L34) | 87.4%

For quick reference, copied from above (series 1):
assay | setting | patients with treatment-emergent adverse events [%]
item: lumbar vertebral fracture | dose not given, Grade 5, maximum intensity, all drug arms total | 0
item: C-reactive protein increased | 60 mg once daily, Grade 4 | 0
item: interstitial lung disease | 30 mg once daily, Grade 2 | 0
item: left ventricular dysfunction | 30 mg once daily, Grade 5 | 0
item: idiopathic pulmonary fibrosis | dose not given, Grade 1, all drug arms | 0
item: electrocardiogram QT prolonged | 30 mg once daily, Grade 5 | 0
item: interstitial lung disease | dose not given, Grade 1, all drug arms | 0
